Results gathered from unrelated publications.
Numbered parts are unrelated; each lists some results of a single study. Positions count from the first letter of the parent shown.
Sequence of UniProt Q6P3R8 (whole entry, looked up): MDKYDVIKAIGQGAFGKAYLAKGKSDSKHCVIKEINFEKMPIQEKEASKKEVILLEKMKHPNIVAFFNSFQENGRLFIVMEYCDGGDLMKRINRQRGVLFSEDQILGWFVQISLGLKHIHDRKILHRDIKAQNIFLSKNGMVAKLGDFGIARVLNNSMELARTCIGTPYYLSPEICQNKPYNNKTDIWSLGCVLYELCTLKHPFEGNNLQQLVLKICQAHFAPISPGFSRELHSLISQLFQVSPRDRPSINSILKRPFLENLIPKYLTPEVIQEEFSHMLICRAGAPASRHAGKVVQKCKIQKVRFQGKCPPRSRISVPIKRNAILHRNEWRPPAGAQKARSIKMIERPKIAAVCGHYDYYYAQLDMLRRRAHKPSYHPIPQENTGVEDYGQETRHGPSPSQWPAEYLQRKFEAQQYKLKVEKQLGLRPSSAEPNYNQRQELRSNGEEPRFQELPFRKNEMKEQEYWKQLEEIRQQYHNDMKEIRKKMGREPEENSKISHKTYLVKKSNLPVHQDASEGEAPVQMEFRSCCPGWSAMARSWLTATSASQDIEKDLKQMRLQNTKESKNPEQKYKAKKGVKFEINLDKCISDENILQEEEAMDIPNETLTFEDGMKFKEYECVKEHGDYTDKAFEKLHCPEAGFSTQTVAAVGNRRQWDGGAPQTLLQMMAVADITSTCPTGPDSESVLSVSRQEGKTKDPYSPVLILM
Sequence of UniProt Q86YV6 (whole entry, looked up): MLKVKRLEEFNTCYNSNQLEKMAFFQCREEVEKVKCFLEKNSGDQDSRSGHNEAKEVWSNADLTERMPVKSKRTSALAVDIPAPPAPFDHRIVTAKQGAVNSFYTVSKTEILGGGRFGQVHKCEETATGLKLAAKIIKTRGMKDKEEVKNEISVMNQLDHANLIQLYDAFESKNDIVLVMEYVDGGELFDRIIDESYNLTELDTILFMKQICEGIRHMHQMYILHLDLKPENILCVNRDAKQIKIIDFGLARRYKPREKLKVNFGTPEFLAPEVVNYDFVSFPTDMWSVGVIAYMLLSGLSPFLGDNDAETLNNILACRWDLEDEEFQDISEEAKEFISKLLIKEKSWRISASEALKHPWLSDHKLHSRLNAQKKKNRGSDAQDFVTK
Sequence of UniProt Q9NSY1 (whole entry, looked up): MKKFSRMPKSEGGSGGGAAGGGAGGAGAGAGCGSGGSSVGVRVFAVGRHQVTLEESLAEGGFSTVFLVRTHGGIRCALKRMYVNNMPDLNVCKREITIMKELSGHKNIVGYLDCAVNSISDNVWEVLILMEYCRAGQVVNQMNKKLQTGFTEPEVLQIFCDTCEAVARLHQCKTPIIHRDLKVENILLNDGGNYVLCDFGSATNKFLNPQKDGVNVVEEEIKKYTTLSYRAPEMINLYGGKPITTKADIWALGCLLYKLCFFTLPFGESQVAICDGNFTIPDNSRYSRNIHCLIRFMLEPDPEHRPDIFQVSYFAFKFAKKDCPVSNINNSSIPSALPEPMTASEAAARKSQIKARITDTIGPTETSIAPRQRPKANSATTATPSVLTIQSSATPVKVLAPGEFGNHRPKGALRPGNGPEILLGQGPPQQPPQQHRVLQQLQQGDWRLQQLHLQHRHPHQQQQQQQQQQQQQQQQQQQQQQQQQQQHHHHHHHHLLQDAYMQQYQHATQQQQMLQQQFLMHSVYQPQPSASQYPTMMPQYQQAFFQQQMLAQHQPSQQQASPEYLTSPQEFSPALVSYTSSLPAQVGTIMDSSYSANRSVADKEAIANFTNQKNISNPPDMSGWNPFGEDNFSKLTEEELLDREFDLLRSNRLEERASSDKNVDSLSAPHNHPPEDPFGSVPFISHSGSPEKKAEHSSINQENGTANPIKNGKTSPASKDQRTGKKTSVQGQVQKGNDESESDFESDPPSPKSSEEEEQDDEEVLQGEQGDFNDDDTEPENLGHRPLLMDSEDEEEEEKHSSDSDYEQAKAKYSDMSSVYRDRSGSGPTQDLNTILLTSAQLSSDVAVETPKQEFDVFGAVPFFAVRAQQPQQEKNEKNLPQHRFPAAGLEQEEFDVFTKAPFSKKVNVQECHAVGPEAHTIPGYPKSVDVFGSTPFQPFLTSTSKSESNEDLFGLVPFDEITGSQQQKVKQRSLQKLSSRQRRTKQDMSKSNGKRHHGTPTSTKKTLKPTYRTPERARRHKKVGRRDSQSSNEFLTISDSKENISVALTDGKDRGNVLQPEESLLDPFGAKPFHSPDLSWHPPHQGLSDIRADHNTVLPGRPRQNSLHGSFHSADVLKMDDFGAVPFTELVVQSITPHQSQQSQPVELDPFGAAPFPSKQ
Sequence of UniProt Q14680 (whole entry, looked up): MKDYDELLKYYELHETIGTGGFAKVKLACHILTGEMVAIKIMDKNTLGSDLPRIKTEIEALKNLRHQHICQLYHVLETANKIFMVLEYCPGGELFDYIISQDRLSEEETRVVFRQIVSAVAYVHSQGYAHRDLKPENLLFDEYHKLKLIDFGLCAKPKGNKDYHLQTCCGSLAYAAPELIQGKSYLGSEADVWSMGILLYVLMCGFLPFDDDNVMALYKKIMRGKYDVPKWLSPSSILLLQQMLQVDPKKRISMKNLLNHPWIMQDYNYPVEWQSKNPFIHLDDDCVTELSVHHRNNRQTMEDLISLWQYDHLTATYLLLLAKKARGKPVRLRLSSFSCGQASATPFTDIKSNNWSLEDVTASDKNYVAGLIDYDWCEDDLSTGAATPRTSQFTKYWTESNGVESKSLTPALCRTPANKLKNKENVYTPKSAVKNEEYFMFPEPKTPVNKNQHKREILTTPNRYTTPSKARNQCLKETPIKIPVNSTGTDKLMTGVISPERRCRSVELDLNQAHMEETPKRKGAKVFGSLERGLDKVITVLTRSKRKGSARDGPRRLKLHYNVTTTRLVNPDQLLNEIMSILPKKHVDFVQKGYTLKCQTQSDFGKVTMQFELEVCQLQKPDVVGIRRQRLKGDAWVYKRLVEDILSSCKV

Block 1 — observed: enzyme activity; action: inhibitor; concentration: 0.5 µM; relative to: control
Target: Serine/threonine-protein kinase 26 (STK26, Homo sapiens, UniProt Q9P289)
Sequence of UniProt Q9P289 (whole entry, looked up): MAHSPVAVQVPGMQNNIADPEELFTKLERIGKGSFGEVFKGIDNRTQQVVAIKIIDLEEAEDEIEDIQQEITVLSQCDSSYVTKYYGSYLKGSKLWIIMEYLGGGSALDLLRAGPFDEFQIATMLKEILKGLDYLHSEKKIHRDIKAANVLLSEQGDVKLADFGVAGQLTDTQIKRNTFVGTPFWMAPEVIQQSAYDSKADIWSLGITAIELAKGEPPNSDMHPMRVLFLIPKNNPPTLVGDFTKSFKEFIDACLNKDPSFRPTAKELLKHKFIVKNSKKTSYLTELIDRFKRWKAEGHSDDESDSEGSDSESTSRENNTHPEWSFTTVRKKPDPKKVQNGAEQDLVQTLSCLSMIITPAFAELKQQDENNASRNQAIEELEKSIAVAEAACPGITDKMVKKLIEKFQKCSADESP
Structure (SMILES) | remaining activity [%]
O=C(CCCc1ccc(-c2ccccc2F)cc1)Nc1ccc(O)cc1 | 91.5
COc1cc2ncnc(Nc3ccc(Oc4ccccc4)cc3)c2cc1OC | 102
O=c1c2ccccc2[nH]c(=S)n1CCN1CCC(=C(c2ccc(F)cc2)c2ccc(F)cc2)CC1 | 91.6
O=C(O)c1ccc2c3c1cccc3c(=O)n1c3ccccc3nc21 | 97.8
OCC(O)CCON=C1C(c2c(O)[nH]c3ccccc23)=Nc2ccccc21 (stereo not drawn) | 73.1
NCCNc1ncc(C(N)=O)c(Nc2cccc(C(F)(F)F)c2)n1 | 117
O=S(=O)(c1cccc2cnccc12)N1CCCNCC1 | 90
Nc1[nH]nc2nc3ccccc3nc12 | 91.2
Nc1ccc2ncnc(NCCc3ccc(Oc4ccccc4)cc3)c2c1 | 94.4
Cc1nc(-c2ccccc2)c(-c2ccncc2)o1 | 114
Cn1c2ccccc2c2c3c(c4c5ccccc5n(CCC#N)c4c21)CNC3=O | 89.8
CCOC(=O)c1c(C)[nH]c(/C=C2\C(=O)Nc3ccccc32)c1C | 101
O=C1NC(=O)C(c2cn(CCCO)c3ncccc23)=C1c1cnccn1 | 78.7
Cn1sc(=O)n(Cc2ccccc2)c1=O | 98.1
N#CC(C#N)=C(N)/C(C#N)=C/c1ccc(O)cc1 | 101

Block 2 — technique: RNA Bind-n-Seq; molecule type: RNA; sample: in vitro; concentration: 20 nM; notes: 6-mer, flanks averaged, single round; with: 150 mM LiCl; relative to: input library; direction: higher = stronger binding
Target: TAR DNA-binding protein 43, full length, His tag (TARDBP, Homo sapiens, UniProt Q13148, residues 1-414)
Strand | 6-mer enrichment (R)
CUGCGA | 0.86
AACACA | 0.84
UCAUUC | 0.872
CCACGU | 0.92
UACCCC | 1.12
GAAGCA | 0.9
GCCUCG | 0.88
UCAUGU | 0.999

Block 3 — technique: DHFR PCA, dose-response; sample: yeast; notes: Hill fit, mean, not affinity; with: (+)-ABA, dose series; direction: lower = more sensitive
Target: ABI1, truncated, D143A, DHFR fusion (Arabidopsis thaliana, UniProt P49597)
Parent: PYL1, truncated, DHFR fusion (Arabidopsis thaliana, UniProt Q8VZS8); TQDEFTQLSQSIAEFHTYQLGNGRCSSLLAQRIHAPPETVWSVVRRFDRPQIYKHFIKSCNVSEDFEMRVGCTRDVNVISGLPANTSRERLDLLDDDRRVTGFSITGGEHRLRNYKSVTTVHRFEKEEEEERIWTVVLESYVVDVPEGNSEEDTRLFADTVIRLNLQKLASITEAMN
Substitution | ABA EC50 [µM]
V100W | 344
R99L | 3.18
L93M | 1.41
I162V | 1.21
S59D | 2.41
R98I | 11.5
Y18P | 2.96
D75S | 1.73

Block 4 — Compound: CC(C)(O)c1cncc(-c2nc3ccc(F)cc3n2C2CC2)c1; observed: cell-free assay; technique: competition with immobilised ligand; concentration: 1 µM
target | remaining binding [%]
Myosin light chain kinase family member 4 (MYLK4, Homo sapiens, UniProt Q86YV6) | 100
Serine/threonine-protein kinase Nek5 (NEK5, Homo sapiens, UniProt Q6P3R8) | 100
Maternal embryonic leucine zipper kinase (MELK, Homo sapiens, UniProt Q14680) | 100
Hepatocyte growth factor receptor (MET, Homo sapiens, UniProt P08581, Y1235D) | 100
BMP-2-inducible protein kinase (BMP2K, Homo sapiens, UniProt Q9NSY1) | 100

For quick reference, copied from above (block 4):
target | remaining binding [%]
Myosin light chain kinase family member 4 (MYLK4, Homo sapiens, UniProt Q86YV6) | 100
Serine/threonine-protein kinase Nek5 (NEK5, Homo sapiens, UniProt Q6P3R8) | 100
Maternal embryonic leucine zipper kinase (MELK, Homo sapiens, UniProt Q14680) | 100
Hepatocyte growth factor receptor (MET, Homo sapiens, UniProt P08581, Y1235D) | 100
